Experimental data from different studies.
Compare with care: the assays were run in different laboratories. “And” joins repeats or separate records; there may be more than shown. ± marks the error that the study gave.

SMILES = O=P(O)(O)C(O)(Cn1ccnc1)P(=O)(O)O; cell line = hFOB 1.19; assay = AlamarBlue; setting = 3.8 µM, 72 h; how to read = baseline: control; endpoint = viability; result = 100 ± 1%
SMILES = COc1cc(N2CCC(N3CCN(C)CC3)CC2)ccc1Nc1ncc(Cl)c(Nc2ccccc2P(C)(C)=O)n1; cell line = Ba/F3 EML4-ALK v1, no mutation; assay = cell viability; endpoint = Emax; result = 99.8%
SMILES = C[C@H]1[C@@H](O)O[C@@H]2O[C@@]3(C)CC[C@H]4[C@H](C)CC[C@@H]1[C@@]24OO3; cell line = THP-1; assay = annexin V/PI flow cytometry, item: annexin V+/PI+; setting = 0.8 µM, 24 h; endpoint = late apoptotic cells; result = 1.4%
SMILES = CC[C@H](C)[C@H](NC(=O)[C@H](CCC(N)=O)NC(=O)CNC(=O)[C@H](Cc1c[nH]cn1)NC(=O)[C@H](CCCCN)NC(=O)[C@H](Cc1c[nH]cn1)NC(=O)[C@H](Cc1c[nH]cn1)NC(=O)CN)C(=O)N[C@@H](CCSC)C(=O)N1CCC[C@H]1C(=O)N[C@@H](CCSC)C(=O)N[C@@H](CO)C(=O)NCC(=O)NCC(=O)NCC(=O)N[C@@H](CO)C(=O)N[C@@H](CCCCNC(=O)CCCC[C@@H]1SC[C@@H]2NC(=O)N[C@@H]21)C(=O)O; cell line = K562 (EphA2-negative); assay = confocal microscopy; setting = 10 µM, 20 min, 37 °C, biotin-labelled peptide; endpoint = binding; result = no binding
SMILES = CC(=O)c1nn(-c2ccc(Cl)cc2)/c(=N/N=C(\C)c2ccc(NC(=O)c3ccc(C)cc3)cc2)s1; cell line = MCF7; setting = 5 µM; endpoint = toxicity; result = 94.7%
SMILES = Cl.Fc1ccc(Oc2ccc(Nc3ccc4ncc(OCC5CCNCC5)nc4c3)cc2)cc1; cell line = MOLM-13; assay = RT-qPCR, item: Myc and Meis1; setting = 0.3 and 1 µM, 3 days; endpoint = mRNA level; result = decreased
SMILES = C=Cc1c2[n-]c(c1C)/C=c1\[n-]/c(c(C)c1C=C)=C\c1[n-]c(c(CCC(=O)O)c1C)/C=c1\[n-]c(c(C)c1CCC(=O)O)=C2.[Sn+4]; cell line = SH-SY5Y; assay = RNA-seq, item: FOSL2 mRNA; setting = 5 µM, 5 h; how to read = baseline: untreated cells; endpoint = fold change; result = 1.51
SMILES = CC(C)C[C@H](NC(=O)CNC(=O)c1cc(Cl)ccc1Cl)B(O)O; cell line = BRD4-HiBiT cells; assay = BRD4 degradation rescue, inhibitor; setting = 8 h, together with: dBET6 500 nM; endpoint = EC50; result = 0.149 µM
SMILES = Cn1cc(-n2cnc3c(NCc4nc5cc(Cl)c(Cl)cc5[nH]4)nc(N4CCOCC4)nc32)cn1; cell line = MDA-MB-231; assay = qRT-PCR, item: ATR; setting = 0.05 µM, 6 h, unit not given; how to read = baseline: DMSO; endpoint = mRNA level; result = 0.691 and 0.649 and 0.702
SMILES = Cc1cc(Nc2ncc(Cl)c(Nc3ccccc3S(=O)(=O)C(C)C)n2)c(OC(C)C)cc1C1CCNCC1; cell line = CLB-BAR; assay = phosphoproteomics LC-MS/MS, item: HVCN1 phosphorylation; setting = 200 nM, 60 min; how to read = baseline: untreated; endpoint = log2 fold change; result = -3.23
SMILES = O=C1NCN(c2ccccc2)C12CCN(CCCC(c1ccc(F)cc1)c1ccc(F)cc1)CC2; cell line = MDA-MB-231 BAX/BAK siRNA knockdown; assay = cell viability, CellTiter-Glo; how to read = direction not given; endpoint = Z score; result = -0.207
SMILES = C[C@@H](O)[C@H](NC(=O)Nc1ncnc2c1ncn2[C@@H]1O[C@H](CO)[C@@H](O)[C@H]1O)C(=O)O; cell line = mock-transfected cells; assay = TGFα shedding, agonist; setting = 1 µM; how to read = baseline: unstimulated vehicle control; endpoint = AP-TGFα release; result = 2.16% and 2.64% and 4.18%
SMILES = CC/C(=N\NC(=O)NCc1cccc(O)c1)c1ccc(O)c(C)c1O; cell line = SK-OV-3; assay = gene expression, microarray, item: CLDN1; setting = 10 µM, 24 h; how to read = baseline: DMSO; endpoint = log ratio; result = 3.37
SMILES = Cc1nn(-c2nc3c(F)cc(F)cc3s2)c(O)c1C(c1cccc(C(F)(F)F)c1)c1c(C)nn(-c2nc3c(F)cc(F)cc3s2)c1O; cell line = THP1-Dual; assay = IFN luciferase reporter; setting = 10 µM, together with: HT-DNA; endpoint = inhibition; result = 14.4% and 18.3% and 18% and 0.436% and 15.8% and 1.01%
SMILES = O=C(/C=C/C=C/C=C/C1CCCCC1)NC1=C[C@@](O)(/C=C/C=C/C=C/C(=O)NC2=C(O)CCC2=O)[C@@H]2O[C@@H]2C1=O; cell line = SW837; assay = cell growth, CellTiter-Glo; setting = 78 h; endpoint = GI50; result = 16.1 µM
SMILES = CCN1CCN(Cc2ccc(NC(=O)c3ccc(C)c(-c4ccc5nc(NC(=O)C6CC6)cn5n4)c3)cc2C(F)(F)F)CC1; cell line = MHHCALL4 B-ALL cells; assay = CellTiter-Glo; setting = concentration not given, 3 d; endpoint = cell proliferation; result = inhibited
SMILES = COc1cnc2cccc(N3CCc4c(cc(Cn5ccnc5C)cc4-c4cn(C)nc4C(F)(F)F)C3=O)c2c1; cell line = NCI-H520; assay = cell growth, inhibitor; setting = 120 h; endpoint = EC50; result = > 30 µM
SMILES = CC(C)(C)c1nc(-c2cccc(NS(=O)(=O)c3c(F)cccc3F)c2F)c(-c2ccnc(N)n2)s1; cell line = A2780; assay = annexin V/PI flow cytometry; setting = concentration not given, 48 h; how to read = baseline: control subtracted; endpoint = late apoptotic cells; result = 30.1 ± 3.3%
SMILES = N#C/C(=C\c1c[nH]nc1-c1ccc2ccccc2c1)C(=O)O; cell line = LX-2; assay = qPCR, item: FN1; setting = 10 µM, hepatic stellate cell activation, together with: TGFβ; how to read = baseline: untreated; endpoint = mRNA level; result = decreased
SMILES = CC/C(=N\NC(=O)C(C)Nc1ccccc1)c1ccc(O)c(C)c1O (stereo not shown); cell line = SK-OV-3; assay = Western blot; setting = 10 µM, 6 h, 2D culture, unit not given; how to read = baseline: DMSO; endpoint = TAZ band intensity; result = 0.34 ± 0.05
SMILES = Cn1cc(-c2ccc(-c3cncc(Cl)c3N3CCC4(CCNC4=O)CC3)cc2)cn1; cell line = COLO 205; assay = gene expression, microarray, item: CDC45 mRNA; setting = concentration not given, 2 h; how to read = baseline: untreated cells; endpoint = log2 fold change; result = -2.43
SMILES = CC(C)C[C@H](NC(=O)[C@H](Cc1ccccc1)NC(=O)c1cnccn1)B(O)O; cell line = BRD4-HiBiT cells; assay = BRD4 degradation rescue, inhibitor; setting = 24 h, 50% degradation rescued, together with: dBET6 500 nM; endpoint = EC50; result = 0.0236 µM
SMILES = CCOC(=O)C1=C(C)NC2=C(C(=O)OC(c3ccccc3Cl)C2)C1c1ccccc1Cl (stereo not shown); cell line = J774.A1; assay = cytotoxicity; endpoint = EC50; result = > 20 µM
SMILES = CC[C@H](C)[C@H](NC(=O)[C@H](C)NC(=O)CNC(=O)[C@H](Cc1ccccc1)NC(=O)[C@H](CC(N)=O)NC(=O)[C@H](CC(N)=O)NC(=O)[C@H](CO)NC(=O)[C@H](CO)NC(=O)[C@H](Cc1c[nH]cn1)NC(=O)[C@@H](NC(=O)[C@H](CC(C)C)NC(=O)[C@H](Cc1ccccc1)NC(=O)[C@H](CC(N)=O)NC(=O)[C@H](C)NC(=O)[C@H](CC(C)C)NC(=O)[C@H](CCCNC(=N)N)NC(=O)[C@H](CCC(N)=O)NC(=O)[C@@H](NC(=O)[C@H](C)NC(=O)[C@@H]1CSSC[C@H](NC(=O)[C@@H](N)CCCCN)C(=O)N[C@@H](CC(N)=O)C(=O)N[C@@H]([C@@H](C)O)C(=O)N[C@@H](C)C(=O)N[C@@H]([C@@H](C)O)C(=O)N1)[C@@H](C)O)C(C)C)C(=O)N[C@@H](CC(C)C)C(=O)N[C@@H](CO)C(=O)N[C@@H](CO)C(=O)N[C@H](C(=O)N[C@@H](CC(N)=O)C(=O)N[C@H](C(=O)NCC(=O)N[C@@H](CO)C(=O)N[C@@H](CC(N)=O)C(=O)N[C@H](C(=O)N[C@@H](Cc1ccc(O)cc1)C(N)=O)[C@@H](C)O)C(C)C)[C@@H](C)O; cell line = INS-1; assay = flow cytometry; setting = 1 µM, unit not given; how to read = baseline: control; endpoint = intracellular ROS level; result = 6.33
SMILES = Nc1ncnc2c1ncn2[C@@H]1O[C@H](COP(=O)(O)O)[C@@H](O)[C@H]1O; cell line = MDA-MB-231 BAX/BAK siRNA knockdown; assay = CellTiter-Glo; setting = concentration not given; how to read = baseline: normalised luminescence; endpoint = viability; result = 44.6% and 56.2%
SMILES = CCCC1=C(C(=O)OCC)C(c2ccc(Cl)cc2C)C2=C(CC(c3ccc(Cl)c(OC)c3)CC2=O)N1 (mixture of isomers); cell line = J774.A1; assay = cytotoxicity; endpoint = EC50; result = > 20 µM
SMILES = O=C(Nc1nnc2n3c(=S)[nH][nH]c3nc(-c3ccc(Cl)cc3)c1-2)c1ccccc1; cell line = MDA-MB-435; assay = SRB; setting = 10 µM, NCI60 single-dose screen; how to read = baseline: untreated; endpoint = cell growth; result = 103%
SMILES = CCn1cc(-c2cc(Cn3ccnc3)cc3c2CCN([C@H](c2cc(OC)ccn2)C2CC2)C3=O)c(C(F)(F)F)n1; cell line = SU-DHL-8; assay = cell growth, inhibitor; setting = 120 h; endpoint = EC50; result = 1.48 µM
SMILES = CC(C)C[C@@H](C=O)NC(=O)[C@H](CC(C)C)NC(=O)[C@H](CC(C)C)NC(=O)OCc1ccccc1; cell line = BRD4-HiBiT cells; assay = BRD4 degradation rescue, inhibitor; setting = 2 h, together with: dBET6 500 nM; endpoint = EC50; result = 0.308 µM
SMILES = Cc1ccc(CNC(=O)Cn2cc(CSc3nc4ccccc4[nH]3)nn2)cc1; cell line = HEK293; assay = MTT; setting = 62.5 ppm; endpoint = cytotoxicity; result = 86.2%
SMILES = CCCCN1C[C@H](O)[C@@H](O)[C@@H](O)[C@H]1CO; cell line = sample B patient fibroblasts; assay = Gb3 level lowering, LC-MS/MS, item: Gb3 d18:1/20:0; setting = 216 h; endpoint = IC50; result = 10.2 µM
SMILES = CCn1cc(-c2cc(Cn3ccoc3=N)cc3c2CCN([C@@H](C)c2cc(OC)ccn2)C3=O)c(C(F)(F)F)n1; cell line = OVK18; assay = cell growth, inhibitor; setting = 120 h; endpoint = EC50; result = 3.92 µM
SMILES = Cn1cc(Nc2nccc(-c3ccc4c(c3)CN(C3COC3)CC[C@H]4NC(=O)c3cn(C(C)(C)C)nn3)n2)cn1; cell line = mouse splenic B cells; assay = item: Relaxin signalling; setting = 30 mg/kg, IgD-activated in vivo; how to read = baseline: vehicle, direction not given; endpoint = pathway activation z-score; result = 3.21
SMILES = NCCOc1cc(NC(=O)c2cc(OCc3c[nH]nn3)cc(C(=O)Nc3cc(OCCN)c4ccccc4n3)n2)nc2ccccc12; cell line = HT-1080; assay = cell viability, CellTiter-Glo; setting = 72 h; how to read = baseline: IC50 HT-1080 over WI-38; endpoint = selectivity ratio; result = 3
SMILES = CCOC(=O)C1=C(C)NC2=C(C(=O)OC(c3cccc(OC)c3)C2)C1c1ccccc1Cl (mixture of isomers); cell line = J774.A1; assay = cytotoxicity; endpoint = EC50; result = > 20 µM
SMILES = Cc1cccc(-c2[nH]c(CNc3ccccc3F)nc2-c2ccc3ncnn3c2)n1; cell line = bone marrow CD138+ myeloma cells; assay = XTT; setting = 0.4 µM, mean of three patients; endpoint = viability; result = 96%
SMILES = C=CC(=O)N1CCC([C@@H]2CCNc3c(C(N)=O)c(-c4ccc(Oc5ccccc5)cc4)nn32)CC1; cell line = TMD8; assay = calcium flux, FLIPR; setting = 4 h preincubation, together with: anti-IgM; endpoint = maximum inhibition; result = 41.9%
SMILES = CCc1ccc(NC(=O)Nc2c[nH]c3ccccc23)cc1; cell line = THP1-Dual; assay = TBK1 phosphorylation, inhibitor, Western blot densitometry; setting = 20 µM, together with: HT-DNA; endpoint = phospho-TBK1/TBK1 ratio; result = 0.374 and 0.504 and 0.517
SMILES = C=CC(=O)N1CCC[C@@H](c2ccc(C(N)=O)c3[nH]ccc23)C1; cell line = TMD8; assay = calcium flux, FLIPR; setting = 2 h preincubation, together with: anti-IgM; endpoint = maximum inhibition; result = 17.4%
SMILES = Nc1cccc2c1C(=O)N(C1CCC(=O)NC1=O)C2=O (stereo not shown); cell line = MM1.S; assay = XTT; setting = 2.5 µM; how to read = baseline: untreated; endpoint = viability; result = 15%
